Experimental data collected from several papers.
Each numbered part is a random draw from the data of one study; scales do not carry over between parts. Values joined by “and” are separate records of one study, mostly repeats; a detail may differ.
UniProt Q9P1W9, sequence (whole entry, looked up): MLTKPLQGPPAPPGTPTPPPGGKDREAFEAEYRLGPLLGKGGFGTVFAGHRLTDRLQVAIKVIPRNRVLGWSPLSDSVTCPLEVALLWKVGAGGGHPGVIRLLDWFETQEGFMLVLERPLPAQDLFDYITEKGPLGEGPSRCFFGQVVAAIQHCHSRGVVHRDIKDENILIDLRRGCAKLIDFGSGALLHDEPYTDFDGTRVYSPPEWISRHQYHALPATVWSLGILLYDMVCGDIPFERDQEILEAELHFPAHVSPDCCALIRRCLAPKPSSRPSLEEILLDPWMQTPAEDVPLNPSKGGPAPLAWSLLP
UniProt Q12852, sequence (whole entry, looked up): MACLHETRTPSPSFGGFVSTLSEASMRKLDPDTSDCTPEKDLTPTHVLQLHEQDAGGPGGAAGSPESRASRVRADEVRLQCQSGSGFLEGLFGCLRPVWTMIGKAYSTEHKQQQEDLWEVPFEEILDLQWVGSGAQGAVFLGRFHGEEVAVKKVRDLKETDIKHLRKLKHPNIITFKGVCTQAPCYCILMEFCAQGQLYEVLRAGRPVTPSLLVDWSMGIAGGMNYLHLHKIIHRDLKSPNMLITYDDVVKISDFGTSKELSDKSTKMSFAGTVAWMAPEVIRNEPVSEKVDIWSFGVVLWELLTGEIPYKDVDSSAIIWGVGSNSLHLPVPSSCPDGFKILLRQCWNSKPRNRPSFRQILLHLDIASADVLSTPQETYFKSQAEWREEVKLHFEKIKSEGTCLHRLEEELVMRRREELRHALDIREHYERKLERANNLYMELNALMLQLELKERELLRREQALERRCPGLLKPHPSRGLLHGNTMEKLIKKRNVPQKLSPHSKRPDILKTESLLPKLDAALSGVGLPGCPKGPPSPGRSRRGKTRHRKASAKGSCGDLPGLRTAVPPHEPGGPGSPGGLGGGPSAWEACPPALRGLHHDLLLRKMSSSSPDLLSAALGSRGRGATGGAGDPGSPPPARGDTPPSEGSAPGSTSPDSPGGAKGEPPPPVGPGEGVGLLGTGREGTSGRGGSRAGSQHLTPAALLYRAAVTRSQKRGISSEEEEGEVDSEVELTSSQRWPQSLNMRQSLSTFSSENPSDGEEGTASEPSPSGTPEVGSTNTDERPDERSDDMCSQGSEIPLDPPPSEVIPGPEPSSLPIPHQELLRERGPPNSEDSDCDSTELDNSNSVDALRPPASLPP
UniProt O43683, sequence (whole entry, looked up): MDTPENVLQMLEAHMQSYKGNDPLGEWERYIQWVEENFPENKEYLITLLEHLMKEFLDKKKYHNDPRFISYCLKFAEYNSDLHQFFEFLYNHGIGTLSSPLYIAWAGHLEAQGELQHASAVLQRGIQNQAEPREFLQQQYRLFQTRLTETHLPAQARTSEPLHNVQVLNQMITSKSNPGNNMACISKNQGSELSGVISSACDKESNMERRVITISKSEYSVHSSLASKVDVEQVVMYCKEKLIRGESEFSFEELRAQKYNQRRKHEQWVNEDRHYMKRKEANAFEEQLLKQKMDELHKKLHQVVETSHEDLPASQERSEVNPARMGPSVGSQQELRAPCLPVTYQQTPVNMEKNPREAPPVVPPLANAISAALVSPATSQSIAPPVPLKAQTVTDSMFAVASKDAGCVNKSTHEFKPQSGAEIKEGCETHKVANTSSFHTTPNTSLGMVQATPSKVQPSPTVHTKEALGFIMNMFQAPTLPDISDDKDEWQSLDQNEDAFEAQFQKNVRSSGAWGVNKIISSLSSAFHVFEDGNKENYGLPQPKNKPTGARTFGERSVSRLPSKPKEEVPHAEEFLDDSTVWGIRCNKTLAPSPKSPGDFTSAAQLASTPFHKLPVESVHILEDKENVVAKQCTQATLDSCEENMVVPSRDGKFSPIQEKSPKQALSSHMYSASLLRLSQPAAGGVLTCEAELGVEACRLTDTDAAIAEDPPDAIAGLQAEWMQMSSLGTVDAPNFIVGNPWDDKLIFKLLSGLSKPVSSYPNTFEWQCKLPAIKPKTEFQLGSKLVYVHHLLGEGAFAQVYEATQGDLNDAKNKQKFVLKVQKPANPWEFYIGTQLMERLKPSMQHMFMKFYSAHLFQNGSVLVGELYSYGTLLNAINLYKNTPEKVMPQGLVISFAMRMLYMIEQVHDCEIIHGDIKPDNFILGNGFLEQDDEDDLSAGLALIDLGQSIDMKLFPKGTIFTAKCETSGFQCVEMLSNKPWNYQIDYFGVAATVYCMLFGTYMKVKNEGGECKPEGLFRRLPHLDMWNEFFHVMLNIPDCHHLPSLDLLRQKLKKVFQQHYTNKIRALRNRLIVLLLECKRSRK
UniProt Q13188, sequence (whole entry, looked up): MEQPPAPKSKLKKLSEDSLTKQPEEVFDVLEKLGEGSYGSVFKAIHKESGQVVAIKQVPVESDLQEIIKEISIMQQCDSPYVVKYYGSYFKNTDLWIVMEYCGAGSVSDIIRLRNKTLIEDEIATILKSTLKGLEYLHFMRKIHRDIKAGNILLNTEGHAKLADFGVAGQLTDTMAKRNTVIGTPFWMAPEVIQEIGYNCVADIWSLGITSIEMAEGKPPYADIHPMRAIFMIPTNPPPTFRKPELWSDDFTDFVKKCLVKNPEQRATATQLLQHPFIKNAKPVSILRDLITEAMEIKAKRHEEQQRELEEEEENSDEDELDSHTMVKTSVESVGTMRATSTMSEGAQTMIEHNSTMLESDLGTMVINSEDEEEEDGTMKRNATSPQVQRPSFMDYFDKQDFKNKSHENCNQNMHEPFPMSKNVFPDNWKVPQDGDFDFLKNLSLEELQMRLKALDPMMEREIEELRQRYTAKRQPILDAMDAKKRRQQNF
UniProt Q9UBE8, sequence (whole entry, looked up): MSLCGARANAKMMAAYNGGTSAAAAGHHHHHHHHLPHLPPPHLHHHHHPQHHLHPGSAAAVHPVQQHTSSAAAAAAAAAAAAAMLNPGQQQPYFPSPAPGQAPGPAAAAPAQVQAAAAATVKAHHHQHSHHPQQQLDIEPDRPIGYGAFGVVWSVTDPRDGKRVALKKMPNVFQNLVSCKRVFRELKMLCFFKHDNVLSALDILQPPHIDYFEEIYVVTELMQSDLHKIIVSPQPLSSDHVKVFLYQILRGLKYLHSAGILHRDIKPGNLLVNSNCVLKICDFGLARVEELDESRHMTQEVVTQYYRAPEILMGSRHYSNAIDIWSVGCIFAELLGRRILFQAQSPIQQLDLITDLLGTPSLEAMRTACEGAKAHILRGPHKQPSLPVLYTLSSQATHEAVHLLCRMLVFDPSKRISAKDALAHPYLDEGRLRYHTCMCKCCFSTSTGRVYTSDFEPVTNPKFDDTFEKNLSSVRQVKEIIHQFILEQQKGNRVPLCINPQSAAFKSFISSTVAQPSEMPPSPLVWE

Series 1
Structure (SMILES): O=C(Nc1ccccc1)Nc1cccc(Oc2ccc3nccn3n2)c1
Observed: binding
Tested at: 1 µM
target | assay | remaining binding [%]
Serine/threonine-protein kinase NLK (NLK, Homo sapiens, UniProt Q9UBE8) | competition with immobilised ligand | 78
Tyrosine-protein kinase Mer (MERTK, Homo sapiens, UniProt Q12866) | competition with immobilised ligand | 96
Serine/threonine-protein kinase pim-2 (PIM2, Homo sapiens, UniProt Q9P1W9) | – | 98
Mitotic checkpoint serine/threonine-protein kinase BUB1 (BUB1, Homo sapiens, UniProt O43683) | – | 100
Serine/threonine-protein kinase 3 (STK3, Homo sapiens, UniProt Q13188) | – | 100
Mitogen-activated protein kinase kinase kinase 12 (MAP3K12, Homo sapiens, UniProt Q12852) | – | 100
Receptor-type tyrosine-protein kinase FLT3 (FLT3, Homo sapiens, UniProt P36888, N841I) | – | 86
Ephrin type-A receptor 6 (EPHA6, Homo sapiens, UniProt Q9UF33) | competition with immobilised ligand | 100

Series 2
Compound: C[C@@H]1CN(c2ccc(-c3cc(C(=O)NCCOCCOCCOCCOCCOCCOCCNC(=O)/C=C/c4[nH]cc(C(=O)N[C@@H](CC(N)=O)c5ccc(F)c(Cl)c5)c4-c4ccc(Cl)cc4F)ccc3F)cc2NC(=O)c2ccc(F)cc2C(F)(F)F)C[C@H](C)N1C
Observed: thermal unfolding
Technique: differential scanning fluorimetry
Tested at: 5.5 µM
Direction: higher = more unfolded
DCAF1: DDB1- and CUL4-associated factor 1 (DCAF1, Homo sapiens, UniProt Q9Y4B6)
UniProt Q9Y4B6, sequence (whole entry, looked up): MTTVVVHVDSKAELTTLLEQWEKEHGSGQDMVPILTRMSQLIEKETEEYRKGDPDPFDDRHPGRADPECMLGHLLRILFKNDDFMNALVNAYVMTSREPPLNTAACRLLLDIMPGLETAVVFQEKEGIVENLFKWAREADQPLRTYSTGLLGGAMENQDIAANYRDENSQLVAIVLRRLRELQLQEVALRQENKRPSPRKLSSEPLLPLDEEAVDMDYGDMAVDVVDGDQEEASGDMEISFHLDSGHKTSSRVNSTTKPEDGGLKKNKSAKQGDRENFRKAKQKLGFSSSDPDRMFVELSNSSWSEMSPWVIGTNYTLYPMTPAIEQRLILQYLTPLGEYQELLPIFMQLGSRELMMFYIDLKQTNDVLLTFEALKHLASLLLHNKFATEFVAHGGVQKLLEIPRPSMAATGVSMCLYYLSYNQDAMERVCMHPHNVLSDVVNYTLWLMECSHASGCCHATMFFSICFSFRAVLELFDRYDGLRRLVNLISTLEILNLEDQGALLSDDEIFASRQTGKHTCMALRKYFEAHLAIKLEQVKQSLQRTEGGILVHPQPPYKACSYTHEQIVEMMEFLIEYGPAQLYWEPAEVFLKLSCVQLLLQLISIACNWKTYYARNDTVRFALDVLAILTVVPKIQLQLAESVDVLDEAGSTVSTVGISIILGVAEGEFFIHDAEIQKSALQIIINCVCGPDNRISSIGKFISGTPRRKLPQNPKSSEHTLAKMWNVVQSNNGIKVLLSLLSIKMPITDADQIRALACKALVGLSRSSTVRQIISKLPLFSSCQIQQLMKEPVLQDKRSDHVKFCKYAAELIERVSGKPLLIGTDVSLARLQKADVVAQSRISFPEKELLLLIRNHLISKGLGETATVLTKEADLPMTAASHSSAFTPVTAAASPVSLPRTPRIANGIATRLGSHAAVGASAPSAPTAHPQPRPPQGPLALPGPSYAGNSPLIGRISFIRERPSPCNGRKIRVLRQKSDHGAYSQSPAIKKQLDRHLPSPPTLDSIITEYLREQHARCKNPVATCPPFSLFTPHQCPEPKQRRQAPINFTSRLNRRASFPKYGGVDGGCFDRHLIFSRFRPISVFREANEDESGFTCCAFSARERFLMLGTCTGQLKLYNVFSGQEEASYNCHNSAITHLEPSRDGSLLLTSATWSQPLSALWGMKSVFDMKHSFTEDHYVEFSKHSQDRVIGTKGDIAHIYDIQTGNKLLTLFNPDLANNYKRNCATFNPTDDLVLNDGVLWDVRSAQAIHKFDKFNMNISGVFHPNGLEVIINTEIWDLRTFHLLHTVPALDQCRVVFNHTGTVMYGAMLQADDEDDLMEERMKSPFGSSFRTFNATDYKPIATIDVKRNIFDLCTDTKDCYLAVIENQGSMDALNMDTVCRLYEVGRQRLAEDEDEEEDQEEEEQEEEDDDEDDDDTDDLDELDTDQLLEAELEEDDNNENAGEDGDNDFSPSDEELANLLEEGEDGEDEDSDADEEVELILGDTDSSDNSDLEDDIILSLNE
WDR5: WD repeat-containing protein 5 (WDR5, Homo sapiens, UniProt P61964)
target | conditions | SYPRO Orange fluorescence [a.u.]
DCAF1 | 38.2 °C | 11000
WDR5 | 57.21 °C | 15900
WDR5 | 92.81 °C | 50800
WDR5 | 66.01 °C | 17500
WDR5 | 56.61 °C | 16000
WDR5 | 89.01 °C | 56400
WDR5 | 66.21 °C | 17800
DCAF1 | 63.81 °C | 54100

Further values, each from its own experiment
SMILES | assay | system | conditions | quantity | result
Cn1cc(-c2cccc(CN3CCC4(CC3)COc3c4ccc4c3CN([C@H]3CCC(=O)NC3=O)C4=O)c2)cn1 | – | rats | intravenous, 1.02 mg/kg | terminal volume of distribution | 3.43 L/kg
CC(C)C[C@@H]1NC(=O)[C@@H](N(C)C(=O)[C@@H](NC(=O)[C@@H]2C[C@@H](F)CN2C(=O)C2(C(F)(F)F)CC(F)(F)C2)C2CC2)CCCCCCCN(C)C(=O)[C@H](Cc2cc(Cl)cnc2OC2CC2)N(C)C1=O | immunohistochemistry | mice, sample A PDX, tumour | oral, 100 mg/kg three times daily for 4 d, 8 h after last dose | cleaved caspase-3 positive cells | 6.01% and 2.23% and 4.17%
